Experimental data of several laboratories.
“And” joins repeats or separate records; there may be more than shown. Numbers after ± are the reported error. ≈ marks a conversion by molar mass, not a printed value.

CCCCCCCCCCCC[N+](C)(C)Cc1ccccc1.[Br-] — hemolysis (mouse erythrocytes; 10 µM, 30 min, 37 °C): ~7%
O=[N+]([O-])c1cn2c(n1)OC[C@@H](OCc1ccc(N3CCCCC3)cc1)C2 — aqueous solubility (aqueous buffer; pH 7.4): 4.9 µg/mL (≈ 13.7 µM)
Cc1ccc(N(C)C(=O)/C=C/c2ccco2)cc1 — licking latency (hot plate test; mice; oral, 30 mg/kg single, 60 min): 15.5 ± 0.7 s
O=C(O)CCC(=O)O.[2H]C([2H])([2H])Oc1cc(C)c2[nH]ccc2c1CN1CC[C@@H](C2CC2)C[C@H]1c1ccc(C(=O)O)cc1 — Cmax (human, plasma; 125 mg twice daily, day 10, multiple ascending dose, geometric mean): 4680 ng/mL
CC(C)(C(=O)N1CCOc2c(C#N)cncc2C1)C(F)F — subjects with adverse event (item: disturbance in attention; human; oral, 15 mg twice daily, 14 days, multiple ascending dose): 0%
NC1(C(=O)N[C@@H](CCO)c2ccc(Cl)cc2)CCN(c2nc[nH]c3nccc2-3)CC1 — steady-state exposure difference (Chinese/Asian patients; dose not given; baseline: rest of world): < 15%
C[C@@H](N)c1cc(Cl)ccc1Cn1c(=S)[nH]c(=O)c2[nH]ccc21 — non-renal clearance (human, both sexes, matched healthy controls; oral, 2.5 mg single dose, geometric mean): 120 mL/min
Cc1cc(C)c(CNC(=O)c2cc(Cl)c3c(c2C)O[C@@](C)([C@H]2CC[C@H](N(C)C)CC2)O3)c(=O)[nH]1 — patients with grade ≥3 TEAE (CTCAE v4.0, item: blood bilirubin increased; human relapsed/refractory NHL; oral, 200 mg once daily, onset after cycle 1 day 1, overall treatment period): 4.2%
CCc1cc(C(=O)NC)c2nccc(N3CCc4c(cc(Cn5ccnc5)cc4-c4cn(C)nc4C(F)(F)F)C3=O)c2c1 — mean corpuscular volume (Sprague Dawley rats; oral, 100 mg/kg twice daily, 7 days): 65.1 ± 1.59 fL
NC1(C(=O)N[C@@H](CCO)c2ccc(Cl)cc2)CCN(c2nc[nH]c3nccc2-3)CC1 — incidence of Hyper-glycaemia (metastatic CRPC patients; 320 mg b.i.d., grade 3 to 4, treatment-related, added: enzalutamide 160 mg daily): 0%
CC(C)=CC[C@@H](O)C1=CC(=O)c2c(O)ccc(O)c2C1=O — measured concentration (plasma; 25 ng/mL, 3 freeze-thaw cycles at -80 °C): 22.9 ± 1.11 ng/mL
COc1cc2c3c(n(CCCN4CCOCC4)c(=O)c2cc1OC)-c1cc2c(cc1C3=O)OCO2 — AUC(0-inf) (beagle dog, male, plasma; intravenous infusion, 50 mg/m^2, 1 h infusion, vehicle 1): 1500 ± 693 ng·h/mL
Cn1cc(-c2cn3nccc3c(-c3cnn([C@]4(CC#N)C[C@@H](C#N)C4)c3)n2)cn1 — average concentration (healthy humans, plasma; oral, 10 mg twice daily, day 200, fed): 168 ng/mL
O=C1NCCc2nc(OCc3cccc(F)c3)ccc21 — Irwin test score (item: tail pinch; Sprague-Dawley rat male; oral, 100 mg/kg, 4 h; direction not given): 0
NCCONC(=O)[C@@H]1CC[C@@H]2CN1C(=O)N2OS(=O)(=O)O — adverse event incidence (item: Moderate severity; healthy Chinese men; intravenous, 1 g, treatment-related): 0%
CC(C)Oc1c(NC(=O)c2ccc(NC(=O)[C@H](CC(N)=O)NC(=O)c3cc(F)c(/N=N/c4c(F)cccc4F)c(F)c3)cc2)ccc(C(=O)N/N=C/c2ccc(C(=O)O)s2)c1O — thermal half-life (absorbance; DMSO; 40 °C, PSS to ground state relaxation): 3.8 h
COc1ncc(-c2nc3c(n2C(C)C)[C@H](c2ccc(Cl)cc2)N(c2cc(Cl)cn(C)c2=O)C3=O)c(OC)n1 — median half-life (human patients, plasma; oral, 45 mg, cycle 1 day 1, low-dose): 11.7 h
CCCCCCCCCCCCCCCC(=O)N[C@@H](CCC(=O)NCCCC[C@@H]1NC(=O)[C@H]([C@@H](C)CC)NC(=O)[C@@H](NC(=O)[C@@H]2CCCN2C(=O)[C@H](Cc2ccccc2)NC(=O)[C@H](Cc2c[nH]cn2)NC(=O)[C@@H](NC(=O)[C@H](CC(=O)O)NC(=O)CC(C)C)[C@@H](C)O)CSSC[C@@H](C(=O)N[C@@H](CCCCN)C(N)=O)NC(=O)CNC(=O)[C@H](CCCCN)NC(=O)[C@H](CO)NC(=O)[C@H](CCCNC(=N)N)NC(=O)[C@@H]2CCCN2C(=O)[C@H](CCC(=O)O)NC(=O)[C@H](Cc2ccccc2)NC1=O)C(=O)O — AUC(0-inf) share of total (healthy volunteers, plasma; subcutaneous, 60 mg; baseline: parent plus metabolites): 55.2 ± 4.96%
C[Si](C)(C)O[Si](C)(C)O[Si](C)(C)C — slope B, log KAW vs 1/T: -2060
Cc1ccc([C@@H]2O[C@H](CO)[C@@H](O)[C@H](O)[C@H]2O)cc1Cc1ccc(-c2ccc(F)cc2)s1 — urinary magnesium excretion change (Japanese type 2 diabetes patients; 25 mg, day 16, 24 h urine collection; baseline: baseline): 16.2 mg
O=C(c1cccnc1-c1ccncc1)N1CCC(O)(Cc2ccccc2)CC1 — terminal half-life (healthy Japanese adults, plasma; oral, 600 mg single dose): 8.7 h
Cc1cc2sc(N)nc2c2cccnc12 — MRT(0-t) (female BALB/c mice, plasma; intraperitoneal, 30 mg/kg): 4.82 h
O=C(Cc1ccc2ccccc2c1)Nc1cc(C2CCC2)[nH]n1 — measured mean concentration (mouse plasma; 0.5 ng/mL, 40 days, -80 °C, long-term storage stability): 0.5 ± 0.03 ng/mL
CCOCC(=O)N1CCC[C@H](C(=O)NCc2nc(-c3ccc(C#N)nc3)cs2)C1 — unbound hepatic CLint (Sprague-Dawley rat, male, plasma; intravenous, 1 mg/kg): 76 mL/min/kg
CC[C@H](C)CCCCC(=O)N[C@@H](CCN)C(=O)N[C@H](C(=O)N[C@@H](CCN)C(=O)N[C@H]1CCNC(=O)[C@H]([C@@H](C)O)NC(=O)[C@H](CCN)NC(=O)[C@H](CCN)NC(=O)[C@H](CC(C)C)NC(=O)[C@@H](Cc2ccccc2)NC(=O)[C@H](CCN)NC1=O)[C@@H](C)O — terminal elimination rate constant (mild renal insufficiency patients, plasma; IV infusion, 0.75 mg/kg, 1 h infusion, arithmetic mean): 0.0976 h⁻¹
O=C(Nc1nc2cccc(-c3ccc(CN4CCS(=O)(=O)CC4)cc3)n2n1)C1CC1 — treatment-emergent adverse events (item: blood calcium increased; rheumatoid arthritis patients; oral, 75 mg once daily, 4 weeks, any relatedness): 0%
OC[C@H]1O[C@@H](c2ccc(F)c(Cc3cc4ccccc4s3)c2)[C@H](O)[C@@H](O)[C@@H]1O — hypoglycaemia-related adverse event (Japanese patients, type 1 diabetes; oral, 25 mg/day, onset day 9; baseline: patients): 3%
NC(CO)(CO)CCc1ccc(Sc2cccc(OCc3ccccc3)c2)cc1Cl — pulse rate AUEC, geometric mean (human, supine; oral, 3 mg, 0 to 24 h, added: cyclosporin 100 mg): 1300 h×bpm
CCn1c(=O)c(-c2cc(NC(=O)Nc3ccccc3)c(F)cc2Br)cc2cnc(N)cc21 — unbound fraction at Cmax (ultracentrifugation; human, hepatic impairment moderate or matched healthy, plasma; oral, 50 mg single dose): 0.134%
O=C1CC[C@H](N2Cc3cc(N4CCN(CC5CCN(c6ccc([C@@H]7c8ccc(O)cc8CC[C@@H]7c7ccccc7)cc6)CC5)CC4)ccc3C2=O)C(=O)N1 — unbound fraction in hepatocytes (rapid equilibrium dialysis; SD rat hepatocytes; 2.5 µM, 6 h): 0.14
CN1C(=O)[C@@H](NC(=O)c2nnc(Cc3ccccc3)[nH]2)COc2cccnc21 — participants with any serious TEAE (phase I multiple ascending dose; human, male and female; oral, 50 mg, 14 days): 0%
Cc1nc(-c2ccc(OCC(C)C)c(C#N)c2)sc1C(=O)O — ALT (KM mouse, chronic hyperuricaemia model, serum; dose not given): 58.4 U/L and 63.6 U/L and 67.8 U/L and 59 U/L and 81.8 U/L
CNCc1ccc(-c2[nH]c3cc(F)cc4c3c2CCNC4=O)cc1 — incidence of AST/ALT increase (human patients; oral, dose not given, all grades, all doses): 25%
CSc1ccccc1C(=O)NCCn1cc(C(=O)NCc2cccc(C)n2)c(=O)c2cc3c(cc21)OC(F)(F)O3 — half-life (Sprague-Dawley rat, male, plasma; intravenous, 5 mg/kg of parent drug): 0.89 ± 0.5 h
N#Cc1ccc2c(c1)[C@H]1CCCN(C(=O)c3ccc4[nH]cnc4c3)[C@H]1C2 — maximum ACTH level (human; 360 mg, day 7): 10.2 pmol/L
CC(C)[C@H](C(=O)Nc1ccc(C(=O)NO)cc1)c1ccccc1 — measured concentration (whole blood; 10.0 ng/mL, 1 h, 4 °C, stability on ice): 10.7 ng/mL
COc1cc(C(=O)N2CCC3(CC2)CC(=O)c2c(cnn2C(C)C)C3)cc(-c2ccc(C(=O)O)cc2)n1 — total cholesterol change from baseline (human, fasting serum; 40 mg once daily, day 13, adjusted geometric mean): 2.1%
C=CCN1CC(=O)N2[C@@H](Cc3ccc(O)cc3F)C(=O)N(Cc3cccc(N4CC(N5CCN(CC)CC5)C4)n3)C[C@@H]2N1C(=O)NCc1ccccc1 — treatment-related AST increased (advanced solid tumour patients; oral, 15 mg twice daily, grade ≥3, dose-escalation): 0%
O=C(O)CCCCCCCCCCC(=O)O — relative peak deviation (human, plasma; endogenous baseline diurnal; baseline: daily mean concentration): 80.5 ± 10.7%
C=CC(=O)N(C)CCOc1c(N)ncnc1-c1cc(F)cc(NC(=O)c2ccc(C3CC3)cc2F)c1C — AUC (human, plasma; oral, 600 mg once daily, day 12): 1230 ng·h/mL

For quick reference, copied from above:
C[C@@H](N)c1cc(Cl)ccc1Cn1c(=S)[nH]c(=O)c2[nH]ccc21 — non-renal clearance (human, both sexes, matched healthy controls; oral, 2.5 mg single dose, geometric mean): 120 mL/min
Cc1cc(C)c(CNC(=O)c2cc(Cl)c3c(c2C)O[C@@](C)([C@H]2CC[C@H](N(C)C)CC2)O3)c(=O)[nH]1 — patients with grade ≥3 TEAE (CTCAE v4.0, item: blood bilirubin increased; human relapsed/refractory NHL; oral, 200 mg once daily, onset after cycle 1 day 1, overall treatment period): 4.2%
CCc1cc(C(=O)NC)c2nccc(N3CCc4c(cc(Cn5ccnc5)cc4-c4cn(C)nc4C(F)(F)F)C3=O)c2c1 — mean corpuscular volume (Sprague Dawley rats; oral, 100 mg/kg twice daily, 7 days): 65.1 ± 1.59 fL
